# Assay results pooled from the literature.
# Each numbered part is a random draw from the data of one study; scales do not carry over between parts.

# Series 1 — method: RNA Bind-n-Seq; form: RNA; medium: in vitro; concentration: 200 nM; setting: whole 134-nt RNA, ends assumed; with: 150 mM LiCl; reference: input library; reading: higher = stronger binding; all molecules: 7-deaza-guanosine replaces G
# Target: Fragile X messenger ribonucleoprotein 1, C-terminal low-complexity region (Fmr1, Mus musculus, UniProt P35922)
# Constant ends, left off below: GGGAGUUCUACAGUCCGACGAUC … UGGAAUUCUCGGGUGUCAAGG
Strand,log2 enrichment
CCUCAAGUCCUGUGCUACACAUCGUAUGUACCGAAUCGGGCGGGGCGGGGCGGAAAGUAUUAUGUUACGCCGUUCGGAUCUGCACUUCCA,-1.22
AAGUCCUGUGCUACACAUCGUAUGUACCGAAUCGGGCCCGGGCCCGGGGCCCGGGGAAAGUAUUAUGUUACGCCGUUCGGAUCUGCACUU,-2.84
CUCAAGUCCUGUGCUACACAUCGUAUGUACCGAAUCGGGGCCGGCCGGGGCCGGAAAGUAUUAUGUUACGCCGUUCGGAUCUGCACUUCC,0.84
UUCCUCAAGUCCUGUGCUACACAUCGUAUGUACCGAAUCGGAGGUGGUGGAAAGUAUUAUGUUACGCCGUUCGGAUCUGCACUUCCAGCA,-1.63
CCUGUGCUACACAUCGUAUGUACCGAAUCGGGCCCCCCCGGGCCCCCCCGGCCCCCCCGGAAAGUAUUAUGUUACGCCGUUCGGAUCUGC,1.33
UCCUGUGCUACACAUCGUAUGUACCGAAUCGGGUUUUUUGGUUUUUUGGGUUUUUUGGGAAAGUAUUAUGUUACGCCGUUCGGAUCUGCA,-0.782

# Series 2 — method: universal PBM; form: double-stranded DNA, one strand shown; medium: in vitro; concentration: not given; reading: higher = stronger binding
# Target: Sal-like protein 4, full length isoform B (SALL4, Homo sapiens, UniProt Q9UJQ4-2, residues 1-616)
# Setting: 8-mer, flanks averaged, mean of replicates
Strand,E-score
ACCCTTAG,-0.035
ATACTAAA,0.269
AGTACTTA,0.148
CAGTTGTA,0.0385
GCCTGACA,-0.213
ATTATAGG,0.309
TCCGTAAA,0.0316
CGAGAGGA,-0.084
GTGTGGAA,0.0922
CCGAAGCC,-0.335
GCGCTTCA,-0.0963

# Series 3 — method: RNA Bind-n-Seq; form: RNA; medium: in vitro; concentration: 365 nM; reference: no-protein control; reading: higher = stronger binding
# Target: RNA binding protein fox-1 homolog 2, RRM domain, GST-SBP tag (RBFOX2, Homo sapiens, UniProt O43251-10, residues 100-194)
# Setting: natural RNA segment, single round, ends assumed
# Constant ends, left off below: GGGAGUUCUACAGUCCGACGAUC … UGGAAUUCUCGGGUGCCAA
Strand,RBNS enrichment (R)
CGUAUGUACACUGCAAUCAUUUCAUACUUUUGACUGGUCAGAAAAAAAAAACUAAUUGUGAUUUCUAGUCUUGCAAAGCUGUAUGCAGUUAGAUGAUGUGACCUCUAAUA,0.49
AUGCACUUUAGAAUGUAAAAUAACAAUGACUAUUUUAAACUCGAAGACCCACUAUUUUGAGUAUUUUUUAUAGACUUUAAAUACUGGGUUUUUUUCCUCCUUCAAUCUCA,0.749
AUCCAGGACCACAGUGACACAUUAAAGGAAACUGGCUAAGCAGUGGACUAUCCAAUUCAGGAAGCAGGAAAGCAGCCAGGAAAUGUGCUUCUGUUUUGCCAGUUAUUUCC,0.466
UUUGUGUCUGUGACUCUUGUCUUCAUGGAGAUUCCAUUCUGACCCACUUCCUCAUGUCUAAACUGAAGGUGGGGUGUUUUUUUGUUGUUGUUGGUUUGGUUUGGUUUUGG,2
AGAUUCUAAUGGAUAGGAUUUAGAGAUGUGUUCUGUGUUCUUGACCAGUGAAGUAUGCUCUUGGGUCUUUGGCAAAGCUGGAAAGAGAAAGGGCCUCCUUGUUCUUUCCC,0.995
CCCAUUUUCUGAGGAUAAAUUCAAGCCCCCUGCAGAAAUUUGCAUAAGUAACAAGGAGCCAAAUGUUAAUCACUAAGACAUGGGGAAAAUGUCUGCAGGGCAUGUCAGAG,0.875

# Mixed results
Substance,target,assay,test system,setting,scale,quantity,value
"PhoQ, residues 284 288 289 292 302 303 DDMDFR","PhoP, residues 12 14 15 18 19 TPLRH (Escherichia coli, UniProt P23836)","Sort-seq, item: YFP reporter",E. coli,"PhoQ-PhoP variant library, with: 10 µM Mg2+","reference: high Mg2+ state, higher = stronger signaling",fold induction,0.892

# A few entries again (series 1):
Strand,log2 enrichment
CCUCAAGUCCUGUGCUACACAUCGUAUGUACCGAAUCGGGCGGGGCGGGGCGGAAAGUAUUAUGUUACGCCGUUCGGAUCUGCACUUCCA,-1.22
CUCAAGUCCUGUGCUACACAUCGUAUGUACCGAAUCGGGGCCGGCCGGGGCCGGAAAGUAUUAUGUUACGCCGUUCGGAUCUGCACUUCC,0.84
